Measured values of several laboratories.
Compare with care: the assays were run in different laboratories. Numbers after ± are the reported error.

With C=CC(=O)Nc1ccc(F)c(-c2ncnc3[nH]cc(C(=O)OCC)c23)c1 the inhibition was greater than 50% (item: pSTAT5 second wave; CD4 T-cell blasts, mouse; 15 nM, added: IL-2).
COc1c2c(cc3oc(COC4OC(CO)C(O)C(O)C4O)cc(=O)c13)OC(C(C)(C)O)C2 (stereo not drawn) has an inhibition of 38% (ear edema weight; mouse, xylene ear edema; oral, 4 mg/kg; reference: vehicle).
CC1=C2C(=O)C3=CC(C)(C)N=C4CCCC2(CC(C)(C)N1)C34O (single isomer, unassigned; (+)) gave an inhibition of 78.6 ± 1.5% (acetic acid-induced writhing; mouse; intraperitoneal, 1 mg/kg, 0.5 h, writhes counted over 30 min).
Cc1cc(NC(=O)[C@H](O)c2cc(F)cc(F)c2)ccc1-c1cnc(N)c(C(=O)NC(C)C)c1 gave an inhibition of roughly 90% (item: phospho-PERK; mouse, pancreas; oral, 30 mg/kg, early after dose).
With COc1c2c(cc3oc(C)cc(=O)c13)O[C@H](C(C)(C)O[C@@H]1O[C@H](CO)[C@@H](O)[C@H](O)[C@H]1O)C2 the inhibition was 5% (ear edema weight; mouse, xylene ear edema; oral, 1 mg/kg; reference: vehicle).
The inhibition of Fc1ccc(NCc2cn(-c3ccccc3)nc2-c2ccc(OCc3ccccc3)cc2)cc1Cl is reported as 72.5 ± 1.22% (acetic acid-induced writhing; mouse; oral, 20 mg/kg, 30 min pretreatment, writhes counted over 20 min, added: 0.6% acetic acid ip).
CC1=NC(C)(C)CC2(C)CC3=NC(C)(C)CC(C)(O)C34OC124 (racemic) gave an inhibition of 49.7 ± 0.8% (acetic acid-induced writhing; mouse; intraperitoneal, 0.04 mg/kg, 0.5 h, writhes counted over 30 min).
Clc1ccccc1NCc1cn(-c2ccccc2)nc1-c1ccc(OCc2ccccc2)cc1 has an inhibition of 53.5 ± 2.26% (acetic acid-induced writhing; mouse; oral, 20 mg/kg, 30 min pretreatment, writhes counted over 20 min, added: 0.6% acetic acid ip).
The inhibition of COC(=O)C1OC(Oc2c(-c3ccccc3)oc3cc(O)c(O)c(O)c3c2=O)C(O)C(O)C1O (stereo not drawn) is reported as 42.5% (paw oedema; mouse, carrageenan-induced paw oedema; oral, 5 mg/kg, 0 h; reference: 10 h).
For CC(=O)[C@]12NC(C)(C)C[C@@]1(C)C(=O)C1=C2c2c(c3c4n2C(C)(C)CC2=C4[C@@]4(CC(C)(C)N[C@@](C)(C4)C2=O)CC3(C)C)C(=O)C(C)(C)N1 (racemic), the inhibition was 57.3 ± 1.7% (acetic acid-induced writhing; mouse; intraperitoneal, 0.2 mg/kg, 0.5 h, writhes counted over 30 min).
With NS(=O)(=O)c1ccc(-n2cc(CNc3ccc(F)cc3)c(-c3ccc(OCc4ccccc4)cc3)n2)cc1 the inhibition was 65.1 ± 1.2% (acetic acid-induced writhing; mouse; oral, 20 mg/kg, 30 min pretreatment, writhes counted over 20 min, added: 0.6% acetic acid ip).
The inhibition of Nc1nc2cc(CC[C@H]3C[C@@H](n4ccc5c(N)ncnc54)[C@H](O)[C@@H]3O)ccc2cc1Br is reported as 25% (PRMT5-dependent methylation, item: SmD1/3-Me2; mouse NCI-H1048 xenograft, tumour; 0.1 mg/kg daily, 6 days).
For Brc1ccc(NCc2cn(-c3ccccc3)nc2-c2ccc(OCc3ccccc3)cc2)cc1, the inhibition was 29.6 ± 1.85% (acetic acid-induced writhing; mouse; oral, 20 mg/kg, 30 min pretreatment, writhes counted over 20 min, added: 0.6% acetic acid ip).
COc1c2c(cc3oc(CO)cc(=O)c13)O[C@H](C(C)(C)O)C2 has an inhibition of 35% (ear edema weight; mouse, xylene ear edema; oral, 1 mg/kg; reference: vehicle).
For COc1cccc(NCc2cn(-c3ccccc3)nc2-c2ccc(OCc3ccccc3)cc2)c1, the inhibition was 67.9 ± 2.33% (acetic acid-induced writhing; mouse; oral, 20 mg/kg, 30 min pretreatment, writhes counted over 20 min, added: 0.6% acetic acid ip).
The inhibition of CC(C)c1cnc(-c2cc(Cl)ccc2F)cc1Nc1ccncc1C(=O)NC(CO)CO is reported as 63% (item: pSMAD2; 4T1 tumour-bearing mouse, tumour; 30 mg/kg twice daily, 0 to 8 h average; reference: vehicle).
With NS(=O)(=O)c1ccc(-n2cc(CNc3ccc(Cl)cc3)c(-c3ccc(OCc4ccccc4)cc3)n2)cc1 the inhibition was 57.2 ± 1.55% (acetic acid-induced writhing; mouse; oral, 20 mg/kg, 30 min pretreatment, writhes counted over 20 min, added: 0.6% acetic acid ip).
The inhibition of C=CC(=O)N1C[C@H](C)N(c2nc(OC[C@@]34CCCN3C[C@H](F)C4)nc3c(F)c(-c4ccc(F)c5sc(N)c(C#N)c45)c(C(F)(F)F)cc23)C[C@H]1C is reported as 40% (item: phospho-ERK; mouse MIA PaCa-2 Matrigel plug; 30 mg/kg single dose, 2 h).

Repeated from above:
The inhibition of CC(C)c1cnc(-c2cc(Cl)ccc2F)cc1Nc1ccncc1C(=O)NC(CO)CO is reported as 63% (item: pSMAD2; 4T1 tumour-bearing mouse, tumour; 30 mg/kg twice daily, 0 to 8 h average; reference: vehicle).
COc1c2c(cc3oc(CO)cc(=O)c13)O[C@H](C(C)(C)O)C2 has an inhibition of 35% (ear edema weight; mouse, xylene ear edema; oral, 1 mg/kg; reference: vehicle).
For CC(=O)[C@]12NC(C)(C)C[C@@]1(C)C(=O)C1=C2c2c(c3c4n2C(C)(C)CC2=C4[C@@]4(CC(C)(C)N[C@@](C)(C4)C2=O)CC3(C)C)C(=O)C(C)(C)N1 (racemic), the inhibition was 57.3 ± 1.7% (acetic acid-induced writhing; mouse; intraperitoneal, 0.2 mg/kg, 0.5 h, writhes counted over 30 min).
